Experimental data collected from several papers.
Each numbered part is a random draw from the data of one study; scales do not carry over between parts.

Sample 1
Target: RNA binding protein fox-1 homolog 2, RRM domain, GST-SBP tag (RBFOX2, Homo sapiens, UniProt O43251-10, residues 100-194)
Method: RNA Bind-n-Seq
Molecule type: RNA
Matrix: in vitro
Tested at: 365 nM
Setting: natural RNA segment, single round, ends assumed
Reference: no-protein control
Direction: higher = stronger binding
Construct (chain): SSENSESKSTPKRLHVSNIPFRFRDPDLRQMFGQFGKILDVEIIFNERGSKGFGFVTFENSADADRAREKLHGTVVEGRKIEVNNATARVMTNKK
Under “RBNS enrichment (R)”, `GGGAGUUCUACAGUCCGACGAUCUGGCUGGCCGGCUGGGUCUCCUCCCGGGCUCAGUGGGCCUGGGGCCUCUCUGACGUGGUGCCUGCUGGAGGGAGGCUCGUCGUCACCAGCUGACUGCUGGUCCGGCUUCUUGGAAUUCUCGGGUGCCAA` is recorded as 0.471.
For `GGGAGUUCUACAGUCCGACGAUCUCUGGGGUCUGGGCCAGUGGCCAUAGUGAAGCCUGGGAAUGAGUGUUACUGCAGCAUCUGGGCUGCCAGCCACAGGGAAGGGCCAAGCCCCAUGUAGCCCCAGUCAUCCUUGGAAUUCUCGGGUGCCAA`, “RBNS enrichment (R)” read 4.71.
`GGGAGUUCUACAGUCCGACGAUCCAGGGUUUUUGUGCUGGUGUGGAUUAGUUUAACUCUUGUAUUCAACCGUUAGUGCUACCACCUUCUCACAUUACAAUACAAUUACUGGAAGCAAGUACUGCAUUUCCUAUUGGAAUUCUCGGGUGCCAA`: “RBNS enrichment (R)” 1.95.
`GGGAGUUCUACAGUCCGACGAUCCAGAAUUCAUUGAAGAUUUGUUUUGGGACAACUGGAAGAAUCAGCACCAUGGAUACUCGCCCGUGGGCAGGGCUGUGGUCAGCCAAGAAUAGAGGUCAUAUAGUUGGGCCUGGAAUUCUCGGGUGCCAA` — result for “RBNS enrichment (R)”: 0.414.
For `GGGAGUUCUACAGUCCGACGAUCGGAGAACCUACAAAGCUGGCAGAGUUUUGUCUUGCAUUGCGCCUCUCAGUGAACCUUCUCAGUAAAUGGUGCCUUACCGUCACUCCAGUUUCAGGAACCAGCCACAUUUCUGGAAUUCUCGGGUGCCAA`, “RBNS enrichment (R)” read 0.338.
`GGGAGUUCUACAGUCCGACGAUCGUUACUGCUAGAUUCCAAUUCAACUGCCUUGUAGCCUGGGAAGCCCAGCAAGUCAUAACCUCCUGUCUUCUAGGAACCCGUGGGCUUUUACUGUGCAUGUCUCUGUACAAUGGAAUUCUCGGGUGCCAA`: “RBNS enrichment (R)” 1.82.
Under “RBNS enrichment (R)”, `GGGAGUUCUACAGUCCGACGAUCUUUUAUUGGUCAGAAAUAAAAUGUGACUGCAACUGUGUGCCCUCCCUUGUCGUGAAUUCCCUGUUUAUCACUUCCAUGCAUGGUUUUAUGCUUCUCAUUUGUUUAUGUAUUGGAAUUCUCGGGUGCCAA` is recorded as 1.46.
Under “RBNS enrichment (R)”, `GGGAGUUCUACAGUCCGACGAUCAAGGAAACUUUUAUAUCUGUUGCCUAGUUUUGUACAUGGAUCUCAUUUUACAAGAGAAUCUCUCUGCAAAAAAAAAAAAAACAGUUUAAAAAUGCAUUGAAAGCAGAGUUUGGAAUUCUCGGGUGCCAA` is recorded as 0.431.
`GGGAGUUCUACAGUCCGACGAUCGGAUUUGGGACCUAAAAUACUCCUCAGGUUGAUGUAUUCAUGAAGUUUUAAAACAUCUUUAGUUUUCAAAGUAAACUGGAUAUGUGGACCUUAAAGUUAUUGAGUUUAAGUGGAAUUCUCGGGUGCCAA`: “RBNS enrichment (R)” 0.344.
For `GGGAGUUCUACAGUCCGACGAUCCGUGCUCCAGCCACCCCUGAGCUGAGGCUCCCAUUGUCUCCAUCAGAGCCUGCAUGUGUAUGCCGUCCUCCCCUGGUCCGGUGUUUGUGUUCCCCACCCCUCACAGACUGUGGAAUUCUCGGGUGCCAA`, “RBNS enrichment (R)” read 4.91.
`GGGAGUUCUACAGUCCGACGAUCAGGGUUUGUCUGUCCUGAAAGUGACACCCACCAGCUCUGCGGGAGACUCUUGGUAGACAGACCUGUGGGGUAGCAGGCCUGGCAGGAGUGGGACAGCCCCUUGAAGCAUUUGGAAUUCUCGGGUGCCAA`: “RBNS enrichment (R)” 1.04.
`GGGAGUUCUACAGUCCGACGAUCGUACCAAUAUGGUAGACCUCUUUCACAGUCAAUCUCAGCCCUGGAAAUUAUGUUCUACUAUGCUCAGGCCCAAAGGCAAUGUGGGGGCCAAAGGGCAACUGGCCUUCUGAUGGAAUUCUCGGGUGCCAA` — result for “RBNS enrichment (R)”: 1.47.

Sample 2
Target: Histone acetyltransferase KAT6A, winged helix 2, GST fusion (KAT6A, Homo sapiens, UniProt Q92794, residues 85-181)
Method: protein binding microarray
Molecule type: double-stranded DNA, one strand shown
Matrix: in vitro
Tested at: not given
Setting: 8-mer, flanks averaged, mean of 2 arrays, mostly near background
Reference: not given
Direction: higher = stronger binding
Residues (chain): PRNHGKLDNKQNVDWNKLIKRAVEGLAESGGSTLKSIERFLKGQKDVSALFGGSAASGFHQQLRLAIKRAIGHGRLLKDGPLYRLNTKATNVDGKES
`ATGTCCAC` gave an E-score of -0.0521.
`CAGAGTTA` gave an E-score of -0.0701.
`AAGCACAT` gave an E-score of 0.0375.
For `AACAGCCA`, the E-score was 0.133.
`GGTAGATA` has an E-score of -0.0535.
`GCTAATTA` gave an E-score of 0.0151.
For `GACGAGTA`, the E-score was 0.0558.
`GAAAGTTA` has an E-score of 0.0631.
`GTCTGTCA` gave an E-score of -0.0386.
`AACCTCCC` has an E-score of -0.0532.
With `GATTACAC` the E-score was 0.0848.
With `CAGTCTAC` the E-score was -0.293.
The E-score of `ATAAACCC` is reported as 0.193.
For `AGATTTGG`, the E-score was -0.0711.
The E-score of `AGTAGTCA` is reported as -0.191.
With `GGGCCCGA` the E-score was 0.092.
For `GAGATTAC`, the E-score was -0.186.
`AATAGCCG` gave an E-score of -0.134.

Sample 3
Target: Prothrombin, mature alpha-thrombin (F2, Homo sapiens, UniProt P00734)
Method: aptamer microarray, sandwich
Molecule type: DNA with 2'F-ANA
Matrix: in vitro
Tested at: 200 nM
Setting: whole 15-mer aptamer, many near background
Together with: Cy3 exosite-II aptamer, 400 nM
Direction: higher = stronger binding
Strand: GGTTGGTGTGGTTGG
`2'F-ANA at 2 6 9 10 13 14 15` — result for “mean fluorescence intensity”: 93.4 a.u.
For `2'F-ANA at 4 6 13 14`, “mean fluorescence intensity” read 83.5 a.u.
For `2'F-ANA at 1 2 5 6 7 8 9 11`, “mean fluorescence intensity” read 70.7 a.u.
For `2'F-ANA at 1 3 11 12 13`, “mean fluorescence intensity” read 447 a.u.
`2'F-ANA at 1 3 8 9 10 11 12 13 15`: “mean fluorescence intensity” 120 a.u.
For `2'F-ANA at 3 6 7 10 13 14 15`, “mean fluorescence intensity” read 389 a.u.
For `2'F-ANA at 4 5 7 8 9 10 11 12`, “mean fluorescence intensity” read 50 a.u.
For `2'F-ANA at 2 5 7 11 14 15`, “mean fluorescence intensity” read 45.1 a.u.
For `2'F-ANA at 1 2 6 7 10 11 12 13 14`, “mean fluorescence intensity” read 148 a.u.
For `2'F-ANA at 1 2 4 6 7 9 10 11 12 13`, “mean fluorescence intensity” read 59.8 a.u.
`2'F-ANA at 2 3 5 6 8 11 12 14 15`: “mean fluorescence intensity” 57.9 a.u.
`2'F-ANA at 4 5 6 10 13 15` — result for “mean fluorescence intensity”: 44.6 a.u.
`2'F-ANA at 3 5 6 7 10 12 13 14`: “mean fluorescence intensity” 50.3 a.u.
For `2'F-ANA at 4 5 7 8 9 10 12 14 15`, “mean fluorescence intensity” read 47.8 a.u.
`2'F-ANA at 5 6 7 10 12 13 14 15`: “mean fluorescence intensity” 43.6 a.u.
For `2'F-ANA at 4 9 10 11 15`, “mean fluorescence intensity” read 75.3 a.u.
Under “mean fluorescence intensity”, `2'F-ANA at 1 2 4 6 7 8 9 11 13` is recorded as 73.8 a.u.
Under “mean fluorescence intensity”, `2'F-ANA at 6 7 8 9 14` is recorded as 201 a.u.
For `2'F-ANA at 2 4 5 6 10 12`, “mean fluorescence intensity” read 53.2 a.u.
`2'F-ANA at 1 2 3 4 5 6 8 10 14 15`: “mean fluorescence intensity” 291 a.u.
For `2'F-ANA at 2 4 5 6 9 13 14`, “mean fluorescence intensity” read 59.4 a.u.
`2'F-ANA at 4 6 7 9 12 13 14 15` — result for “mean fluorescence intensity”: 79 a.u.
For `2'F-ANA at 6 8 9 10 14`, “mean fluorescence intensity” read 110 a.u.
Under “mean fluorescence intensity”, `2'F-ANA at 1 6 9 10 13 14 15` is recorded as 46.7 a.u.
Under “mean fluorescence intensity”, `2'F-ANA at 1 3 4 6 9 10 12 13 14 15` is recorded as 63.7 a.u.

Sample 4
Target: Interferon regulatory factor 7, full length, phosphomimetic (IRF7, Homo sapiens, UniProt Q92985, residues 1-503, S101K/S471D/S472D/S475D/S476D/S477D/S483D/S484D/S487D)
Sequence of UniProt Q92985 (whole entry, unmodified, looked up): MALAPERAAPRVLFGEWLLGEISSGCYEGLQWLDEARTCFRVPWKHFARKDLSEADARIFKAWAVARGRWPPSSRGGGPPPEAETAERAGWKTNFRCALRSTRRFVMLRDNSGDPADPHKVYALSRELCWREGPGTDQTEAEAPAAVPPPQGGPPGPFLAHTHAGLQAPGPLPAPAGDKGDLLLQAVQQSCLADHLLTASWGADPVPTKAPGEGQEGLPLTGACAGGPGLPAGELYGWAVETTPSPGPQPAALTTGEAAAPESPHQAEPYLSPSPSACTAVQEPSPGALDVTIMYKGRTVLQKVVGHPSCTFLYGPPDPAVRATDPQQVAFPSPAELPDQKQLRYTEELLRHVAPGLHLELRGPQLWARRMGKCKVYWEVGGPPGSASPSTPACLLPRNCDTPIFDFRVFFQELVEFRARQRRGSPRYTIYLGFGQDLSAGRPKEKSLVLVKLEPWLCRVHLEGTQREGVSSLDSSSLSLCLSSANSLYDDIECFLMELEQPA
Method: protein-binding microarray
Molecule type: double-stranded DNA, one strand shown
Matrix: in vitro
Tested at: 250 nM
Setting: 60-bp whole probe
Together with: salmon DNA 0.4 mg/ml
Reference: random background probes
Direction: higher = stronger binding
Shared flanks, not repeated: GCCTAGCAC … GTCTTGATTCGCTTGACGCTGCTG
`TCAGGTATCGGGACTGGGTTAGTGCTA` has a log fluorescence of 0.127 z-score.
`TTAGGTTTCGGTTCCGTTTAGTGCTAG` has a log fluorescence of 13.1 z-score.
`GACGGTTTCCTTTCTCTGACGTGCTAG` has a log fluorescence of 6.02 z-score.
With `TTAGAACTGGGGCCTGGATTAGTGCTA` the log fluorescence was -0.209 z-score.
With `TCATTTTTCTCAACCGTACTGTGCTAG` the log fluorescence was 1.29 z-score.
For `TTAGGTACCGGGTATCGGTTAGTGCTA`, the log fluorescence was 1.04 z-score.
For `TTAGGTTTAGGGTTTCGGTTAGTGCTA`, the log fluorescence was 5.55 z-score.
`TTAGGACTGGGTTTCGTTTAGTGCTAG` gave a log fluorescence of 6.76 z-score.
For `TTAGGTACCGGGTTTCGGTTAGTGCTA`, the log fluorescence was 7 z-score.
`ACTCGTGTTTTTCTCCTATTGTGCTAG` gave a log fluorescence of 1.56 z-score.
With `TGAGGTATCGGTTTCGGTTAGTGCTAG` the log fluorescence was 10.1 z-score.
With `TCATCTTTCCACTTGTCACTGTGCTAG` the log fluorescence was 1.91 z-score.
For `TTAGGTGTCCTTTCCCTTTAGTGCTAG`, the log fluorescence was 0.369 z-score.
For `TCAGGACTGCTTCTCCTTTAGTGCTAG`, the log fluorescence was 0.255 z-score.
`TCAGCTCTTGTTTTCACACTGTGCTAG` gave a log fluorescence of 0.242 z-score.
The log fluorescence of `GAGGATTTCGGGACTGGAGACGTGCTA` is reported as -0.482 z-score.
`GAAGGACTGGGTCTCGGGACGTGCTAG` gave a log fluorescence of -0.134 z-score.
`GAACTTTGGCCTCTAGGTTTGTGCTAG` gave a log fluorescence of -0.273 z-score.
`GACGGTATCGACTATCGGGACGTGCTA` gave a log fluorescence of -0.044 z-score.
With `GTCGGTTTCGGTCTCGGGACGTGCTAG` the log fluorescence was 9 z-score.
For `TTAGTTATCGACACTGGGTTAGTGCTA`, the log fluorescence was 0.178 z-score.
With `TTAGGACTGGGTCTCGGCTAGTGCTAG` the log fluorescence was -0.0723 z-score.
For `GACGGTCTCCTACTACTGACGTGCTAG`, the log fluorescence was -0.334 z-score.
The log fluorescence of `GGCGGACTGCTTATCCTGACGTGCTAG` is reported as -0.989 z-score.
The log fluorescence of `TCACATTTTGGTTTTCCACTGTGCTAG` is reported as 1.11 z-score.
